Literature values that unrelated publications cite.
Protocols differ between the studies behind these lines. ± gives the spread as reported.
ribH: 6,7-dimethyl-8-ribityllumazine synthase (ribH, Mycobacterium tuberculosis, UniProt P9WHE9)
Eif4e residues 28-217: Eukaryotic translation initiation factor 4E, residues 28-217 (Eif4e, Mus musculus, UniProt P63073)
lecA: PA-I galactophilic lectin (lecA, Pseudomonas aeruginosa, UniProt Q05097)
EGFR L858R: Epidermal growth factor receptor (EGFR, Homo sapiens, UniProt P00533, L858R)
MAOB: Amine oxidase [flavin-containing] B (MAOB, Homo sapiens, UniProt P27338)
rib4: 6,7-dimethyl-8-ribityllumazine synthase (rib4, Schizosaccharomyces pombe, UniProt Q9UUB1)

Structure (SMILES)	target	assay	test system	setting	how to read	quantity	value
CO[C@H]1O[C@H](CNS(=O)(=O)c2c(C)cc(C)cc2C)[C@@H](O)[C@H](O)[C@@H]1O	lecB (Pseudomonas aeruginosa, UniProt Q9HYN5)	binding, ITC				−TΔS	1.67 kJ/mol
COc1cc2c(cc1OC)CN(CCCCn1ccc3cc(OCCF)ccc31)C2	Tmem97 (Rattus norvegicus, UniProt Q5U3Y7)	binding			baseline: Ki sigma1 over Ki sigma2	selectivity ratio	57
Nc1c(SC[C@H](O)[C@H](O)[C@H](O)CO)[nH]c(=O)[nH]c1=O	ribH			pH 7.0		Ki (uncompetitive, ESI)	57 ± 24 µM
Nc1c(O)cccc1C(=O)C[C@H](N)C(=O)O	Kynureninase (Rattus norvegicus, UniProt P70712)	substrate		rat enzyme		Km	5 µM
BP(=O)(OP(=O)([O-])OC[C@H]1O[C@@H](n2c[n+](C)c3c(=O)[nH]c(N)nc32)[C@H](O)[C@@H]1O)OP(=O)([O-])OC[C@H]1O[C@@H](n2c[n+](C)c3c(=O)[nH]c(N)nc32)[C@H](O)[C@@H]1O	Eif4e residues 28-217			pH 7.2, 20 °C		association constant	11.1 ± 0.2 µM⁻¹
CC(C)C[C@H](NC(=O)[C@H](CO)NC(=O)[C@H](C)NC(=O)[C@H](CCCNC(=N)N)NC(=O)[C@H](CCCNC(=N)N)NC(=O)[C@@H](N)CC(C)C)C(=O)NCC(=O)O	PRKACA (Homo sapiens, UniProt P17612)	substrate				Km	16 µM
C[C@H](NC(=O)[C@@H]1CCCN1C(=O)[C@@H]1CCCN1C(=O)[C@H](C)NC(=O)[C@@H](NC(=O)[C@H](CO)NC(=O)CNC(=O)[C@@H]1CCCN1C(=O)[C@H](C)NC(=O)[C@@H]1CCCN1C(=O)[C@@H](N)CCCNC(=N)N)[C@@H](C)O)C(=O)N[C@@H](Cc1c[nH]cn1)C(=O)NCC(=O)O	16 A monoclonal antibody	SPR				koff	0.0039 s⁻¹
O=C(O[C@@H]1Cc2c(O)cc(O)cc2O[C@@H]1c1cc(O)c(O)c(O)c1)c1cc(O)c(O)c(O)c1	serum albumin, human	binding, tryptophan fluorescence quenching				association constant	0.05 µM⁻¹
CC(Cc1nc2c(cnn2-c2ccccc2Cl)c(=O)[nH]1)C(F)(F)F (stereo not drawn)	PDE9A (Homo sapiens, UniProt O76083)	binding			baseline: (R) over (S) enantiomer	selectivity ratio	~4 fold
Nc1ccccc1C(=O)N[C@@H](CO)C(=O)N[C@@H](CC(=O)O)C(=O)N[C@@H](CCCCNc1ccc([N+](=O)[O-])cc1[N+](=O)[O-])C(=O)N1CCC[C@H]1C(=O)O	Angiotensin-converting enzyme, N-domain (Mus musculus, UniProt P09470)	substrate		N-domain selective substrate		Km	35 to 41 µM
CC(=O)N[C@@H](Cc1ccccc1)C(=O)N[C@@H](CC(=O)O)C(=O)N[C@@H](CC(N)=O)C(=O)N1CCC[C@H]1C(=O)N[C@H](C(=O)N[C@@H](CC(C)C)C(=O)O)C(C)C	LDL receptor, position 807 mutant				baseline: native LDL receptor	internalization index	0.3
OCCn1cc(CO[C@@H]2O[C@H](CO)[C@H](O)[C@H](O)[C@H]2O)nn1	lecA	ITC		concentration not given		binding stoichiometry	0.92
CC(=O)N[C@H]1[C@@H](O)[C@H](O)[C@@H](CO)O[C@H]1O	N-acetylmannosamine kinase (Staphylococcus aureus)	substrate				Km	140 ± 8 µM
CCOC(=O)CNC(=O)CN1C(=O)S/C(=C\c2ccc(C)cc2)C1=O	α-glucosidase	enzyme activity		200 µM		inhibition	51%
CO[C@@H]1[C@H](O)[C@@H](COP(=O)([O-])OP(=O)(O)CP(=O)(O)OP(=O)(O)OC[C@H]2O[C@@H](n3cnc4c(=O)[nH]c(N)nc43)[C@H](O)[C@@H]2O)O[C@H]1n1c[n+](C)c2c(O)nc(N)nc21	Eif4e residues 28-217	binding, fluorescence quenching titration		pH 7.2		association constant	44 µM⁻¹
N=C(CF)NCCC[C@H](NC(=O)c1ccc(-c2ccccc2)cc1)c1nc2ccccc2[nH]1	PADI4 (Homo sapiens, UniProt Q9UM07)	inhibitor				kinact/KI	62.5 M⁻¹ s⁻¹
C[n+]1cn([C@@H]2O[C@H](COP(=O)([O-])OP(=O)(O)CP(=O)(O)OP(=O)(O)OC[C@H]3O[C@@H](n4cnc5c(=O)[nH]c(N)nc54)[C@H](O)[C@@H]3O)[C@@H](O)[C@H]2O)c2nc(N)nc(O)c21	Eif4e residues 28-217	binding, fluorescence quenching titration		pH 7.2		association constant	48.6 µM⁻¹
C=CC(=O)N1CCC[C@@H](n2nc(-c3cn(C)c4ccccc34)c3c(N)ncnc32)C1	EGFR L858R					kinact	0.17 ± 0.08 min⁻¹

Structure (SMILES)	target	assay	test system	setting	how to read	quantity	value
Nc1c2ncn3c2nc[n+]1[C@@H]1O[C@H](COP(=O)(O)OP(=O)([O-])OC[C@H]2O[C@@H]3[C@H](O)[C@@H]2OP(=O)(O)O)[C@@H](O)[C@H]1O	cADPR receptor, sea urchin		sea urchin egg homogenate	concentration not given		activity	inactive
O=C(Nc1c(-c2ccccc2)cnn1-c1ccccc1)c1ccc([N+](=O)[O-])cc1	metabotropic glutamate receptor 1 (human)	receptor activity		concentration not given		activity	inactive
CC(C)C[C@H](NC(=O)[C@@H](Cc1c[nH]c2ccccc12)NC(=O)[C@H](Cc1ccc(O)cc1)NC(=O)[C@H](CO)NC(=O)[C@H](Cc1c[nH]c2ccccc12)NC(=O)[C@H](Cc1c[nH]cn1)NC(=O)[C@@H]1CCC(=O)N1)C(=O)N[C@@H](CCCNC(=N)N)C(=O)N1CCC[C@H]1C(=O)NCC(N)=O	GnRH receptor		cell membranes			binding affinity	~2 nM
COc1ccc(-n2nc3c4cc(Cl)ccc4[nH]cc-3c2=O)cc1	Gamma-aminobutyric acid receptor subunit alpha-6/beta-3, with gamma-2 subunit (Gabra6/Gabrb3, Rattus norvegicus, UniProt P30191+P63079)	ion current, modulator		α6β3γ2, together with: GABA EC3-5		maximum modulation	~2000%
Cc1cccc(C)c1NC(=O)C1CCN(Cc2ccccc2)C1 (stereo not drawn)	SCN4A (Homo sapiens, UniProt P35499)	sodium current block, in vitro		phasic block, 10 Hz		Hill coefficient	1.1 ± 0.1
CCCCN(CCc1ccccc1)CCc1cccc(O)c1	dopamine receptors			concentration not given		activity	inactive
OC[C@H]1O[C@@H](OCc2cn([C@H]3[C@H](O)[C@@H](O)[C@H](c4cn([C@H]5[C@H](O)[C@@H](O)[C@H](n6cc([C@@H]7O[C@H](CO)[C@@H](n8cc(CO[C@@H]9O[C@H](CO)[C@H](O)[C@H](O)[C@H]9O)nn8)[C@H](O)[C@H]7O)nn6)O[C@@H]5CO)nn4)O[C@@H]3CO)nn2)[C@H](O)[C@@H](O)[C@H]1O	lecA	ITC		concentration not given		binding stoichiometry	0.55
C=CC(=O)N1CCC[C@@H](n2nc(-c3ccc4ccccc4c3)c3c(N)ncnc32)C1	EGFR L858R					kinact/Ki	1.6e+06 ± 530000 M⁻¹ s⁻¹
CC(=O)c1c(O)cccc1OCc1cccc(Br)c1	MAOB				baseline: IC50 MAO-A over IC50 MAO-B	selectivity ratio	17
Cc1cc(C(=O)O)ccc1Sc1ccccc1N1CCNCC1	major 5-HT receptors			concentration not given		binding	no binding
CNc1ccccc1C(=O)O[C@H]1C[C@H](n2cnc3c(N)ncnc32)O[C@@H]1COP(=O)(O)OP(=O)(O)O	Unconventional myosin-Va (Gallus gallus, UniProt Q02440, D297C/G292C/I296C/S293C/V295G)			concentration not given, temperature dependence, together with: 1 mM MgCl2		FRET distance change	2 to 4 Å
C=CC(=O)N1CCC[C@@H](n2nc(-c3cccc4ccccc34)c3c(N)ncnc32)C1	EGFR L858R					kinact/Ki	100000 ± 60000 M⁻¹ s⁻¹
CCOC(=O)C(=O)Nc1c(NC[C@H](O)[C@H](O)[C@H](O)CO)[nH]c(=O)[nH]c1=O	rib4	enzyme kinetics		pH 7.0	lower = tighter substrate binding	Ks	1 ± 0.1 µM
CCOC(=O)C(NC(=O)CN1C(=O)/C(=C/c2ccc3c(c2)OCO3)SC1=S)C(C)C (stereo not drawn)	α-glucosidase	enzyme activity		100 µM		inhibition	30 ± 23.9%
O=c1[nH]c(SC[C@H](O)[C@H](O)[C@H](O)CO)c([N+](=O)[O-])c(=O)[nH]1	rib4	enzyme kinetics		pH 7.0		kcat	0.085 ± 0.00167 s⁻¹
CC(=O)c1cc(OCc2cccc(Br)c2)ccc1O	MAOB				baseline: IC50 MAO-A over IC50 MAO-B	selectivity ratio	34
COc1ccc([C@@]23Oc4cc(OC)cc(OC)c4[C@]2(O)[C@H](O)[C@H](C(=O)N(C)C)[C@H]3c2ccccc2)cc1	DDX3X and eIF4A1	RNA clamping binding			baseline: eIF4A1 over DDX3X affinity	selectivity ratio	≥ 30 fold
CC(C)C(=O)Nc1c(NC[C@H](O)[C@H](O)[C@H](O)CO)[nH]c(=O)[nH]c1=O	ribH	enzyme kinetics		pH 7.0, together with: substrate 2 fixed, 1 varied	lower = tighter substrate binding	Ks	63 ± 8 µM

A few entries again:
Structure (SMILES)	target	assay	test system	setting	how to read	quantity	value
CC(C)C[C@H](NC(=O)[C@H](CO)NC(=O)[C@H](C)NC(=O)[C@H](CCCNC(=N)N)NC(=O)[C@H](CCCNC(=N)N)NC(=O)[C@@H](N)CC(C)C)C(=O)NCC(=O)O	PRKACA (Homo sapiens, UniProt P17612)	substrate				Km	16 µM
C[C@H](NC(=O)[C@@H]1CCCN1C(=O)[C@@H]1CCCN1C(=O)[C@H](C)NC(=O)[C@@H](NC(=O)[C@H](CO)NC(=O)CNC(=O)[C@@H]1CCCN1C(=O)[C@H](C)NC(=O)[C@@H]1CCCN1C(=O)[C@@H](N)CCCNC(=N)N)[C@@H](C)O)C(=O)N[C@@H](Cc1c[nH]cn1)C(=O)NCC(=O)O	16 A monoclonal antibody	SPR				koff	0.0039 s⁻¹
O=C(O[C@@H]1Cc2c(O)cc(O)cc2O[C@@H]1c1cc(O)c(O)c(O)c1)c1cc(O)c(O)c(O)c1	serum albumin, human	binding, tryptophan fluorescence quenching				association constant	0.05 µM⁻¹
CC(Cc1nc2c(cnn2-c2ccccc2Cl)c(=O)[nH]1)C(F)(F)F (stereo not drawn)	PDE9A (Homo sapiens, UniProt O76083)	binding			baseline: (R) over (S) enantiomer	selectivity ratio	~4 fold
